Assay results collected from several papers.
Each numbered part is a random draw from the data of one study; scales do not carry over between parts.

Block 1 — method: protein-binding microarray; molecule type: double-stranded DNA, one strand shown; sample: in vitro; concentration: 0.8 µM; notes: whole 60-bp probe, no competitor; reading: higher = stronger binding
Target: Centromere-binding protein 1, full length, N-terminal tag (CBF1, Saccharomyces cerevisiae, UniProt P17106, residues 1-351)
UniProt P17106, sequence (whole entry, looked up): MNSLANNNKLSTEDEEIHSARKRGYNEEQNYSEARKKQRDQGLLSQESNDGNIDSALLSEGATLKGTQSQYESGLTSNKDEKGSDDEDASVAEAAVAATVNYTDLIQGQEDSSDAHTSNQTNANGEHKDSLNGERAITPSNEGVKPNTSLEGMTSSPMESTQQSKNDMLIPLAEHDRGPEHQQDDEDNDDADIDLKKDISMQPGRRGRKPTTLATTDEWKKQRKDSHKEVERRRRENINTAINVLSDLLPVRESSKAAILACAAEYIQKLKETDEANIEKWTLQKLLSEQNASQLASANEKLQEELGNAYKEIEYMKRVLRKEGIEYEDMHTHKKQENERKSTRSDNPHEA
Sequence	fluorescence intensity
CTAAAATATGACAGGCACGTAAAAGGGTTCTTCTTCGTCTTGATTCGCTTGACGCTGCTG	523 a.u.
CTATCAGCGTTTTCATGTGAGATTTGCTTTATTTTCGTCTTGATTCGCTTGACGCTGCTG	545 a.u.
TGTACGAAGCTATTGAAGGTGACTATAGTAGTTAGGGTCTTGATTCGCTTGACGCTGCTG	536 a.u.

Block 2 — method: universal PBM; molecule type: double-stranded DNA, one strand shown; sample: in vitro; concentration: 600 nM; reading: higher = stronger binding
Target: Sal-like protein 4, full length isoform A (SALL4, Homo sapiens, UniProt Q9UJQ4, residues 1-1053)
UniProt Q9UJQ4, sequence (whole entry, looked up): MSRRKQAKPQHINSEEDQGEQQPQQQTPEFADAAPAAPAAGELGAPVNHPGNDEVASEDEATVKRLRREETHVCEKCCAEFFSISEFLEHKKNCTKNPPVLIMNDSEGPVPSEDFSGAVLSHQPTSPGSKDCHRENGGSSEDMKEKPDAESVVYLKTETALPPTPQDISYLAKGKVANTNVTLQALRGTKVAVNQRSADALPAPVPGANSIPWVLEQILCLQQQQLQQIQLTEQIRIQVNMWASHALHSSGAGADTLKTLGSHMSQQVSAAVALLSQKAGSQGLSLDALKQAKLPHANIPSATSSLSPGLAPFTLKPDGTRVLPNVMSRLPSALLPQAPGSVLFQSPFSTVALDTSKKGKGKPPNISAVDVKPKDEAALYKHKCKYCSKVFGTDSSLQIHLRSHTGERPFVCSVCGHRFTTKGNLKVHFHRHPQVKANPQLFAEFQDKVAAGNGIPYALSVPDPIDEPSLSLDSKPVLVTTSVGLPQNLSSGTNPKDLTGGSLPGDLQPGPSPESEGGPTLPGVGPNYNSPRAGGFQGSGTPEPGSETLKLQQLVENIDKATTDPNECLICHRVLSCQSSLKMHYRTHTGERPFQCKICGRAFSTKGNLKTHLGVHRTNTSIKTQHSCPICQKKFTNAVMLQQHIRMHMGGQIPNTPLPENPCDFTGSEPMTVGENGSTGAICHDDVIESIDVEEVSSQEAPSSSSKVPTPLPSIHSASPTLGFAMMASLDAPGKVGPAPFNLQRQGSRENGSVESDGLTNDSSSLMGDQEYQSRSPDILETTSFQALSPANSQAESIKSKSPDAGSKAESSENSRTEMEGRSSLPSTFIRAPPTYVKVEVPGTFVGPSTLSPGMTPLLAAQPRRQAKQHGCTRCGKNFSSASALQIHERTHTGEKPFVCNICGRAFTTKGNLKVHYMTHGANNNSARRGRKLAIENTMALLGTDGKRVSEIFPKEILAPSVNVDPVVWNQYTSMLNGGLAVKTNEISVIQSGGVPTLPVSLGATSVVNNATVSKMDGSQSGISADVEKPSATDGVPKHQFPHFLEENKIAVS
Notes: 8-mer, flanks averaged, mean of replicates
Sequence	E-score
ATGAGTGA	0.126
CTACATGC	0.0693
CCATGAAG	-0.0165
CTAAAGTC	0.0611

Further values, each from its own experiment
G3BP1 full length: Ras GTPase-activating protein-binding protein 1, full length (G3BP1, Homo sapiens, UniProt Q13283)
UniProt Q13283, sequence (whole entry, looked up): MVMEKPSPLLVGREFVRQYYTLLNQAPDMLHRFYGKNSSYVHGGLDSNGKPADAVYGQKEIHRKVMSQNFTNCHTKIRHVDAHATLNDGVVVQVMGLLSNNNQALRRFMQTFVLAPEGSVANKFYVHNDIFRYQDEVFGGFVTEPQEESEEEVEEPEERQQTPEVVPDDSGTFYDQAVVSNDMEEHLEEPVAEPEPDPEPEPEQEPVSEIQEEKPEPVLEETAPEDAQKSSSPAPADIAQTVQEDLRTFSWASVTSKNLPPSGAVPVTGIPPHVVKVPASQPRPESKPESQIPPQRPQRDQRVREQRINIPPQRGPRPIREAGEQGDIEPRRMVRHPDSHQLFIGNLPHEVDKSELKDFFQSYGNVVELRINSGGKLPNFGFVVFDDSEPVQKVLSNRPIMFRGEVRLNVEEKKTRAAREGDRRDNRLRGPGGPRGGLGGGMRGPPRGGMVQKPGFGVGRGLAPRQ
Substance	target	test	test system	conditions	scale	measurement	result
GGGAGUUCUACAGUCCGACGAUCAGUCCUGUGCUACACAUCGUAUGUACCGAAUCGGGUUUUUUUGGGAGGGUUUUUGGGAAAGUAUUAUGUUACGCCGUUCGGAUCUGCACUUGGAAUUCUCGGGUGUCAAGG	G3BP1 full length	RNA Bind-n-Seq	RNA, in vitro	200 nM, whole 134-nt RNA, ends assumed, with: 150 mM KCl	relative to: input library, higher = stronger binding	log2 enrichment	-0.141
PhoQ, residues 284 288 289 292 302 303 SLGVVW	PhoP, residues 12 14 15 18 19 AQALL (Escherichia coli, UniProt P23836)	Sort-seq, refers to: YFP reporter	E. coli	PhoQ-PhoP variant library, with: 10 µM Mg2+	relative to: high Mg2+ state, higher = stronger signaling	fold induction	16.8
GGGAGUUCUACAGUCCGACGAUCGUCCUGUGCUACACAUCGUAUGUACCGAAUCAAACCCAAACCCCCCCAAAUUUUUAAAAAAGUAUUAUGUUACGCCGUUCGGAUCUGCACUGGAAUUCUCGGGUGUCAAGG	G3BP1 full length	RNA Bind-n-Seq	RNA, in vitro	200 nM, whole 134-nt RNA, ends assumed, with: 150 mM KCl	relative to: input library, higher = stronger binding	log2 enrichment	-0.278

A few entries again (block 2):
Sequence	E-score
CCATGAAG	-0.0165
